Measurements pooled from the literature.
A part holds a random share of what one study measured. Several values in a cell are separate wells, animals, samples, runs or records. Substitutions count along the parent as printed.

Sample 1
Target: Interferon regulatory factor 5, full length, phosphomimetic (IRF5, Homo sapiens, UniProt Q13568-2, residues 1-514, S451D/S453D/S456D/S462D)
Method: protein-binding microarray
Form: double-stranded DNA, one strand shown
Medium: in vitro
Concentration: 940 nM top
Notes: 60-bp whole probe
Added: salmon DNA 0.4 mg/ml
Reference: random background probes
Reading: higher = stronger binding
Endpoint: fitted relative affinity
Shared flanks, not repeated: GCCTAGCAC … GTCTTGATTCGCTTGACGCTGCTG
TCATTTATGCACTCTCTAACTGTGCTA: 0.617 z-score
GACGCACTGGGGTATCGAGACGTGCTA: 1.05 z-score
TTAGACTTCAGTATCGATTAGTGCTAG: 4.71 z-score
TTAGGTATCGTGTATCGGTTAGTGCTA: 3.44 z-score
TTAGAACTGGGGTATCGACTAGTGCTA: 1.43 z-score
GACGGTCCCGGTCTCGGGACGTGCTAG: 0.595 z-score
TACGGTATCGGTCTCGGGACGTGCTAG: 7.38 z-score
GACGATCTCAGTCTCGATACGTGCTAG: 3 z-score
TGAGGACTGCTACTGCTTTAGTGCTAG: -0.283 z-score
GACGGTATCCTTCTGCTGACGTGCTAG: 0.467 z-score
TTAGGACTGCTATTGCTTTAGTGCTAG: -0.695 z-score
TCGGGTCTCCCTTGAGGTTTGTGCTAG: 0.135 z-score
GACGGACTGCTTTTCCTGTCGTGCTAG: 0.477 z-score
TTAGGACTGTTACTGCTTTAGTGCTAG: -0.0141 z-score
TGGAGAGTAGCTTTCTGAGGGTGCTAG: -0.412 z-score
TATAGCTGATACATATAGCCGTGCTAG: -0.312 z-score
GCAGGGCAGGCAGGCTGAGGGTGCTAG: -0.988 z-score
GACGGTTTCGGGTAACGGGACGTGCTA: 9.12 z-score

Sample 2
Target: Histone acetyltransferase KAT6A, both winged helices, GST fusion (KAT6A, Homo sapiens, UniProt Q92794, residues 1-181)
Method: protein binding microarray
Form: double-stranded DNA, one strand shown
Medium: in vitro
Concentration: not given
Notes: 8-mer, flanks averaged, mean of 2 arrays, mostly near background
Reference: not given
Reading: higher = stronger binding
Endpoint: E-score
Construct (chain): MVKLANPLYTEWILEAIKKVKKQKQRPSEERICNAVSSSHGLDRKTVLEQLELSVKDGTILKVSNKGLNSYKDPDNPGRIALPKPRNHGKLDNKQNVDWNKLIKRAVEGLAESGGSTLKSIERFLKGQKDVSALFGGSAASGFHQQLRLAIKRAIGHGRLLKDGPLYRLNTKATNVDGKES
AGCGCGAG: 0.255
ACCTGTAG: -0.167
AACAATGA: -0.0311
GGTTGAAC: 0.0573
CTGCGAGC: -0.0162
GCAGCGAA: 0.0253
CACGGAAG: 0.236
TAACGCCA: 0.0518
GGCCACGA: -0.0407
CCGGGCAC: 0.171
AAAACTCT: -0.0224
CACACCAG: -0.153
TAGTAATA: -0.0394
CACATTTA: -0.26
GGTTAGAA: -0.207
ATCGGGTA: 0.109
CCAAAACA: -0.0771
CTGATCTA: -0.00115
ACCTAAAA: -0.0456
AGACGAGA: -0.119
CAACAAGG: -0.128
ATCCCGAG: 0.168
GGCATGTA: -0.0635
CTTCGCCC: 0.0419
CTCCATCC: -0.18

Sample 3
Target: BATF2, bZIP domain (human)
Method: DHFR protein complementation
Medium: yeast
Notes: single substitutions, most at no-binding floor
Reference: wild-type JUN-FOS pair
Reading: higher = stronger binding
Endpoint: binding fitness
Starting sequence: JUN, bZIP domain (human); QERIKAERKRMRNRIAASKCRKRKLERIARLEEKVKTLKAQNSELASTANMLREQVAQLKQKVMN; partner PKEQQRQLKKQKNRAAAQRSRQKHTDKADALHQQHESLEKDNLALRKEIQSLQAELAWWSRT
S47L: -0.289 natural log
L45V: -1.33 natural log
A49G: -1.29 natural log
E44G: -0.767 natural log
E33L: -0.443 natural log
L31I: -0.495 natural log
L45I: -0.969 natural log
K39S: -0.427 natural log
K36Y: -0.538 natural log
L59T: -0.59 natural log
V35L: -0.505 natural log
N42L: -1.46 natural log
T48K: -0.188 natural log
T37V: -0.216 natural log
R30Y: -0.238 natural log
A46N: -0.282 natural log
Q55G: -1.2 natural log
A40E: -0.242 natural log

Sample 4
Target: RNA binding protein fox-1 homolog 2, RRM domain, GST-SBP tag (RBFOX2, Homo sapiens, UniProt O43251-10, residues 100-194)
Method: RNA Bind-n-Seq
Form: RNA
Medium: in vitro
Concentration: 365 nM
Notes: natural RNA segment, single round, ends assumed
Reference: no-protein control
Reading: higher = stronger binding
Endpoint: RBNS enrichment (R)
Shared flanks, not repeated: GGGAGUUCUACAGUCCGACGAUC … UGGAAUUCUCGGGUGCCAA
Target sequence (chain): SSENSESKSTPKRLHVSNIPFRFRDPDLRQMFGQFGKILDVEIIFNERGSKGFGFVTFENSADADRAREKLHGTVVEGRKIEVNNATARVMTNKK
GACCAUAUUUUCUCCACUGUCACCUAGACACUUAUGGGUUAGUGUCCCUUCCAUCUGCCUGGUGCAGGAAGCAGGGCCGUCAUGCCAACGCGCCCAGUCCAGGAUCUGCC: 0.232
CCCCGAACCAUGCAUCCAAGUGCAGGCUGGGCUGCGGAUCCUUUUUGGGACCUCGAGGGGACAGCAAGAGAGAAUGAGAGAGGAGCUCCAAUGUGAGCUUUUCGUUCUUA: 1.24
GCAAGAUGAUGAGCACAGAGUGAGACCUUUAACAGGAUGGCGGAGGGAAAGGUGUUUGCUGGAGUGACUUCCGUGCAGAGUGGUCUAUAGAGAAACUACAGCUCUGCCCA: 1.93
AUGAUUGCUCGAUCACUUUAGAUAGUAAGUAGGCUAUUUACAUAAUGAGCUAACCUCAGAGAGAAGCCCUGGAGUCUAAGAUUGUUGUAAAAAUUAAUUUAUUUGUGUUA: 0.447
AGUCUUGGCCAGCCAACUCUGGGAAUACAGGGGUGAAAGGGGGGAACCAGUGAAAAUGAAAGGAAGUUUCAGUAUUAGAUGCACUUAAGUUAGCCUCCACCACCCUUUCC: 0.533
AAGCUGCCCUCCUGAAAGGCAAGGGCGCCCCGCCCCCGGCCUUCCCCCAUGUACCCCCACCUGUGUUCCGUUUGACCAGCACAGAAAUAUUAAAGUCCUCUAUUUACCGG: 0.729
UAAUCAAGAGGGGACAUUUUUCAUUAAGAGUUCAGUAAGACUUCUCCCACAUUAUUUACUAGAAAAUAUCAUCUUAGAAGAAACCCCAUGAAGGAAAAGAAUAGGGAAAA: 0.586
UGAAUUAGGAGCCGUUUUGGUAAUUAUUUCAUAUAUCGCCGUUUAUUGAGAAAAGGUUGUAGGAAGCCUCACAAGAGACUUUUGACAAUUCUGAGGAACCUUGUGCCCAG: 0.216
CCACGCCCCUCAUGCCCUUGUCCCAGGCCCGGGGCCUUCAGCGUUGAACACUUCCUUGCUUUUUUCACAUGUUUUAUGGAAUUGUUCACCUGGUUUGAAAUAAUAAAAUG: 0.651
CUUAUACAUGGAUGGCAGCAGGCAAAGAGAGAACUUGUGCAGGGGAACUCUUUAUAAAACCGUCCGAUCUUGUGAGACUUAUUCACUAUCACAAGAACAGCACAGGAAAG: 0.435
CAAGGUCCAUGUUUUUCUGGCUCUUCCUGCACACUCAUCCCUAGAUUAUGAGCGUUAAUGUACGAAAUGUGCAGAGCAAAUUGAGGCCAACUGUGGCAUCAAUACUGCAA: 0.381
UUCUGAGUUUUGUGGUGCUGUAGCGAUCUCUCAGCACCUAUCUCGAGCGAGGAGCUGAUGAGUCCCUUGCAGCCUCCAGUCUGACCCAGAGUGGCAGGUAUCCUGGCAUG: 1.1

Sample 5
Target: CCNA1, cyclin fold, Cln2 fusion (human)
Method: yeast growth competition, sequencing
Medium: yeast
Notes: weak parent motif
Reference: not given
Reading: higher = stronger binding
Endpoint: normalised enrichment score
Starting sequence: CDC25A docking peptide (human); PPHRRRLLFACSP; partner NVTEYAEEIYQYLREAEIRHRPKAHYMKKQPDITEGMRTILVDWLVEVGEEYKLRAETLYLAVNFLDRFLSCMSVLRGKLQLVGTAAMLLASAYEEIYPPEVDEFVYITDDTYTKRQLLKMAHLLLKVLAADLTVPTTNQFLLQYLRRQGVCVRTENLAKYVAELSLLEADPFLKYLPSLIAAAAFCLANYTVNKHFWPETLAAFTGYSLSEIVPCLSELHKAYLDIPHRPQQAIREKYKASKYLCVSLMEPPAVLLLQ
R4E: 0.246
C11Y: 0.172
P1G: 0.0572
S12N: 0.647
R6V: 0.35
H3Y: 0.464
R6W: 0.621
P2Y: 0.379
P2S: 0.137
C11P: 0.45
F9R: 0.604
R4K: 0.409
P13H: 0.317
L8K: 0.508
L8I: 0.356
R5K F9L: 0.603
F9G: 0.524
A10F: 0.22
L7G: 0.104
P13C: 0.469
P1A: 0.187
P13E: 0.271
P13K: 0.103
P1I: 0.249
F9N: 0.543

Sample 6
Target: Sal-like protein 4, full length isoform B (SALL4, Homo sapiens, UniProt Q9UJQ4-2, residues 1-616)
Method: universal PBM
Form: double-stranded DNA, one strand shown
Medium: in vitro
Concentration: not given
Notes: 8-mer, flanks averaged, mean of replicates
Reading: higher = stronger binding
Endpoint: E-score
Residues (chain): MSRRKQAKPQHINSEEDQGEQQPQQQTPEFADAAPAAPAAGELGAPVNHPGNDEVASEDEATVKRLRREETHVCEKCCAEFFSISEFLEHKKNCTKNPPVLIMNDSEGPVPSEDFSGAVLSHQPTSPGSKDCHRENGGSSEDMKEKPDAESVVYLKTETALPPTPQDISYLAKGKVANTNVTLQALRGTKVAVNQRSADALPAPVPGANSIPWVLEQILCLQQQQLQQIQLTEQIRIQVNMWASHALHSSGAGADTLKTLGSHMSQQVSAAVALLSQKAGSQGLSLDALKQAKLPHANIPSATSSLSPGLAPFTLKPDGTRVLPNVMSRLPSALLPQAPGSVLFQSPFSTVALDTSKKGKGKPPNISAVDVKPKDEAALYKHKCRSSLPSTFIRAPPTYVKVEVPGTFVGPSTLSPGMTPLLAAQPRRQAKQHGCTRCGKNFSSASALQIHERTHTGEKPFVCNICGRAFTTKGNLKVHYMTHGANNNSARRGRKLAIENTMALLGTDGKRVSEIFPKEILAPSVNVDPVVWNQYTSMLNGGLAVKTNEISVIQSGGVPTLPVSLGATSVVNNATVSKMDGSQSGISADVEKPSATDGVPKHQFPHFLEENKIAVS
TAGCTATA: 0.279
GACCGAAC: -0.158
CAAGGTCA: -0.0773
TTCATCAA: 0.238
AACAGAGT: 0.0252
CCTCAGGA: -0.213
ACGCTCAG: -0.245
ACGTCGAC: 0.00927
ACACGGGA: -0.137
CGCTACTA: 0.0187
ACCGGACG: -0.213
CGCGCTCA: -0.125
ACATTTGG: -0.0478
CGTCTATA: 0.109
AGGAATCC: -0.191
GCGCATGA: -0.229
CAGCTTTA: 0.0758
CGATTCTA: 0.0167
GAACACAC: -0.0703

Further values, each from its own experiment
PhoQ, residues 284 288 289 292 302 303 SASVAL
fold induction (PhoP, residues 12 14 15 18 19 LWHSL (Escherichia coli, UniProt P23836); Sort-seq, refers to: YFP reporter; E. coli; PhoQ-PhoP variant library, added: 10 µM Mg2+; reference: high Mg2+ state, higher = stronger signaling): 21.7 and 11.1

Repeated from above (sample 4):
CCCCGAACCAUGCAUCCAAGUGCAGGCUGGGCUGCGGAUCCUUUUUGGGACCUCGAGGGGACAGCAAGAGAGAAUGAGAGAGGAGCUCCAAUGUGAGCUUUUCGUUCUUA: 1.24
UGAAUUAGGAGCCGUUUUGGUAAUUAUUUCAUAUAUCGCCGUUUAUUGAGAAAAGGUUGUAGGAAGCCUCACAAGAGACUUUUGACAAUUCUGAGGAACCUUGUGCCCAG: 0.216
UAAUCAAGAGGGGACAUUUUUCAUUAAGAGUUCAGUAAGACUUCUCCCACAUUAUUUACUAGAAAAUAUCAUCUUAGAAGAAACCCCAUGAAGGAAAAGAAUAGGGAAAA: 0.586
AGUCUUGGCCAGCCAACUCUGGGAAUACAGGGGUGAAAGGGGGGAACCAGUGAAAAUGAAAGGAAGUUUCAGUAUUAGAUGCACUUAAGUUAGCCUCCACCACCCUUUCC: 0.533
UUCUGAGUUUUGUGGUGCUGUAGCGAUCUCUCAGCACCUAUCUCGAGCGAGGAGCUGAUGAGUCCCUUGCAGCCUCCAGUCUGACCCAGAGUGGCAGGUAUCCUGGCAUG: 1.1
CAAGGUCCAUGUUUUUCUGGCUCUUCCUGCACACUCAUCCCUAGAUUAUGAGCGUUAAUGUACGAAAUGUGCAGAGCAAAUUGAGGCCAACUGUGGCAUCAAUACUGCAA: 0.381
